Measured values collected from several papers.
Protocols differ between the studies behind these lines. Values joined by “and” are separate records of one study, mostly repeats; a detail may differ. Numbers after ± are the reported error. Values after ≈ are worked out from the molar mass of the structure shown.

Cc1cc(N2CCC(C#N)(C3(C)CC3)C2=O)cc(C(=O)NCc2cc(F)cc(-c3cnn(C)c3)c2)n1 (racemic) — IC50 (Plasmodium falciparum; parasite growth, [3H]hypoxanthine incorporation; Dd2 Pfpi4k mutant): 18 nM
CC(C)[C@H]1NC(=O)CNC(=O)[C@H](CO)NC(=O)[C@@H](Cc2c(-c3ccc(-c4ccc5ccccc5c4)cc3)[nH]c3ccccc23)NC(=O)[C@@H](CO)NC(=O)[C@@H](C(C)C)NC(=O)[C@H](Cc2ccccc2)NC1=O — MIC90 (Mycobacterium marinum): 31.1 µM
C[N+]1=C2C(c3ccc(Cl)cc3)=[N+]([O-])c3ccccc3N2CCC1 — MIC90 (Clostridioides difficile; microbial growth): 32 µg/mL
CC[C@H](C)[C@H](NC(=O)[C@H](CCCCN)NC(=O)[C@H](CC(=O)O)NC(=O)[C@H](CC(C)C)NC(=O)[C@@H](NC(=O)[C@H](CC(N)=O)NC(=O)[C@H](CC(C)C)NC(=O)[C@@H](NC(=O)[C@H](Cc1ccccc1)NC(=O)[C@H](CCCCN)NC(=O)[C@H](CCCCN)NC(=O)CNC(=O)[C@H](C)NC(=O)[C@H](CC(N)=O)NC(=O)[C@H](CCCCN)NC(=O)[C@H](Cc1ccccc1)NC(=O)[C@H](CC(N)=O)NC(=O)[C@H](CCC(=O)O)NC(=O)[C@H](Cc1c[nH]c2ccccc12)NC(=O)[C@H](CC(C)C)NC(=O)[C@@H](N)CO)[C@@H](C)CC)[C@@H](C)CC)C(=O)N[C@@H](CCCNC(=N)N)C(=O)N[C@H]1CSSC[C@@H](C(=O)N[C@@H](CCCNC(=N)N)C(=O)N[C@H](C(=O)O)[C@@H](C)O)NC(=O)CNC(=O)CNC(=O)[C@H](C)NC(=O)[C@H](C(C)C)NC(=O)[C@H](CCCNC(=N)N)NC1=O — geometric mean MIC (Gram-negative bacteria): 13.5 µM
CCCCCCCC(=O)NCCCC[C@H](NC(=O)CCCCCCC)C(=O)N[C@@H](CCCCNC(=O)CCCCCCC)C(=O)NCC(=O)NCC(=O)NCC(=O)N[C@@H](CS)C(=O)N[C@@H](CCCNC(=N)N)C(=O)N[C@@H](CCCCN)C(=O)N1CCC[C@H]1C(=O)N[C@@H](CS)C(=O)N[C@@H](CCCNC(=N)N)C(=O)N[C@@H](CCCCN)C(=O)N1CCC[C@H]1C(N)=O — geometric mean MIC (Candida; twelve fungal strains): 8 µM
COC(=O)C1=CO[C@@H](C)[C@@H]2Cn3ccc4c5ccccc5nc-4c3C[C@H]12 — IC50 (Plasmodium falciparum; growth, [3H]-hypoxanthine uptake; Dd2; 96 h): 275 ± 129 nM
CC(C)C[C@H](NC(=O)[C@H](CCN)NC(=O)[C@H](CCN)NC(=O)[C@@H](Cc1ccccc1)NC(=O)[C@H](CC(C)C)NC(=O)[C@H](CCN)NC(=O)[C@H](CCN)NC(=O)[C@@H](CCN)NC(=O)[C@@H](N)CS)C(N)=O — MBC (Acinetobacter calcoaceticus; BHI agar spot plating; 24 h, 37 °C): 64 µM
O=S(=O)(c1cccc(-c2ccc3ncnc(Nc4ccc(OCc5cccc(F)c5)c(Cl)c4)c3c2)c1)N1CCCC1 — inhibition (Trypanosoma cruzi; intracellular amastigote growth; NIH 3T3, Tulahuen, β-galactosidase-expressing; 10 µM, 96 h): 32%
CCOC(=O)C1(CC#N)Oc2cc(F)ccc2N(CC#N)C1=O (centres unmarked) — inhibition (Setaria viridis; fresh weight, greenhouse postemergence; postemergence, 150 g ai/ha, 21 days): 59.9 ± 1.44%
O=[N+]([O-])c1ccc(C2=[N+]([O-])c3ccccc3N3CCCN=C23)cc1 — MIC50 (Clostridioides difficile; microbial growth): 0.25 µg/mL (≈ 0.776 µM)
O=S(=O)(c1ccc(-c2ccc3ncnc(Nc4ccc(OCc5cccc(F)c5)c(Cl)c4)c3c2)cc1)N1CCOCC1 — inhibition (Trypanosoma cruzi; intracellular amastigote growth, β-galactosidase CPRG; 3T3, Tulahuen, β-galactosidase-expressing; 10 µM, 96 h): 0%
CCc1nn(C)c2nc(-c3ccc(C(=O)O)cc3)nc(NCc3ccccc3)c12 — parasite number (Cryptosporidium parvum; HCT-8; EC50, 24 h; baseline: DMSO control): 136% and 119% and 86.8% and 103%
CC[C@H](C)[C@H](NC(=O)[C@H](CCCCN)NC(=O)[C@H](CCCCN)NC(=O)[C@H](Cc1ccccc1)NC(=O)[C@H](Cc1ccccc1)NC(=O)[C@H](CCCCN)NC(=O)[C@H](CCCCN)NC(=O)[C@H](Cc1ccccc1)NC(=O)[C@H](CCCNC(=N)N)NC(=O)[C@@H](N)CCCCN)C(=O)N[C@@H](CCCCN)C(=O)N[C@@H](CCCCN)C(=O)N[C@@H](CO)C(=O)N[C@H](C(=O)N[C@@H](CCCCN)C(=O)N[C@@H](CCCCN)C(=O)N[C@@H](CCCNC(=N)N)C(=O)N[C@H](C(=O)N[C@@H](CCCCN)C(=O)N[C@@H](CCCCN)C(=O)N[C@@H](CC(C)C)C(=O)N[C@@H](Cc1ccccc1)C(=O)N[C@@H](CCCCN)C(=O)N[C@@H](CCCCN)C(=O)N1CCC[C@H]1C(=O)N[C@@H](CCCNC(=N)N)C(=O)N[C@H](C(=O)N[C@H](C(=O)N1CCC[C@H]1C(=O)N[C@H](C(=O)N[C@@H](CO)C(=O)N[C@H](C(=O)N1CCC[C@H]1C(=O)N[C@@H](Cc1ccccc1)C(=O)O)[C@@H](C)CC)[C@@H](C)CC)[C@@H](C)CC)C(C)C)C(C)C)C(C)C — MBC (Pseudomonas aeruginosa; P2 clinical isolate; 20 h): 16 µg/mL
CC(C)[C@H]1NC(=O)[C@H](Cc2ccc(O)cc2)NC(=O)[C@@H](C(C)C)NC(=O)[C@@H](C)NC(=O)[C@H](CO)NC(=O)[C@@H](Cc2c(-c3ccc(-c4ccc5ccccc5c4)cc3)[nH]c3ccccc23)NC(=O)[C@@H](CO)NC1=O — MIC90 (Mycobacterium marinum): 30.2 µM
CC[C@H](C)[C@@H]1NC(=O)[C@H](CO)NC(=O)[C@H](CCCCN)NC(=O)[C@@H]2CSSC[C@@H](C(=O)N[C@@H](Cc3ccc(O)cc3)C(N)=O)NC(=O)[C@H](CCCCN)NC(=O)[C@@H]3CSSC[C@H](NC(=O)[C@H](CCCNC(=N)N)NC(=O)[C@H](CC(C)C)NC(=O)[C@H](CC(=O)O)NC(=O)[C@H](CC(=O)O)NC(=O)[C@H](CCC(=O)O)NC(=O)[C@H](CC(N)=O)NC(=O)[C@H](Cc4c[nH]c5ccccc45)NC(=O)[C@@H]4CCCN4C(=O)CNC(=O)[C@H](CC(N)=O)NC(=O)[C@@H](NC(=O)CNC(=O)[C@H](Cc4ccccc4)NC(=O)CN)CSSC[C@H](NC(=O)[C@H](Cc4ccc(O)cc4)NC(=O)CNC(=O)CNC(=O)[C@H](CCCCN)NC(=O)[C@H](Cc4ccc(O)cc4)NC(=O)CNC(=O)[C@H](CCCCN)NC1=O)C(=O)N[C@@H](C)C(=O)N[C@@H](CCCCN)C(=O)NCC(=O)NCC(=O)N[C@@H](Cc1ccccc1)C(=O)N[C@@H](C(C)C)C(=O)N3)C(=O)N[C@@H](Cc1c[nH]cn1)C(=O)N[C@@H](CC(N)=O)C(=O)N[C@@H](Cc1c[nH]cn1)C(=O)N2 — MBC (Streptococcus pneumoniae; BS-442; 24 h): 0.25 µM
CCOC(=O)C1(Cc2ccc([N+](=O)[O-])cc2)Oc2cc(F)ccc2N(Cc2ccc([N+](=O)[O-])cc2)C1=O (centres unmarked) — inhibition (Setaria viridis; fresh weight, greenhouse postemergence; postemergence, 150 g ai/ha, 21 days): 49.4 ± 0.62%
Cc1cc(C(=O)Nc2nc3cccc(C)c3n2[C@H]2CCCCN(C(=O)/C=C/CN(C)C)C2)ccn1 — EC50 fold shift (Trypanosoma brucei; cell growth, Alamar Blue; 2T1 overexpressing Tb927.9.10920; baseline: parental 2T1): 0.82 fold and 0.76 fold
CN(C)c1nc(NCc2ccc3ccccc3c2)c(/N=N/c2ccc(Cl)cc2)c(N(C)C)n1 — mortality (Ostrinia furnacalis; leaf dipping; 500 mg/L, 96 h): 100%
CNCCO.O=C(O)C(Cl)Cl — inhibition (Chenopodium album; herbicidal activity; 15 mg/mL, 21 days, pre-emergence greenhouse): 0%
CC(C)C[C@@H]1NC(=O)[C@H](CCC2CCCCC2)NC(=O)[C@H](CC(C)C)NC(=O)[C@H](C(C)C)NC(=O)[C@]2(C)CCCN2C(=O)[C@H](C(C)C)NC(=O)[C@H](Cc2ccccc2)NC(=O)CSCCNC(=O)[C@H](C(C)(C)O)NC1=O — EC50/IC50 ratio (HIV-1; viral replication; MT4; baseline: cell EC50 over protease IC50): 718

A few entries again:
C[N+]1=C2C(c3ccc(Cl)cc3)=[N+]([O-])c3ccccc3N2CCC1 — MIC90 (Clostridioides difficile; microbial growth): 32 µg/mL
CCCCCCCC(=O)NCCCC[C@H](NC(=O)CCCCCCC)C(=O)N[C@@H](CCCCNC(=O)CCCCCCC)C(=O)NCC(=O)NCC(=O)NCC(=O)N[C@@H](CS)C(=O)N[C@@H](CCCNC(=N)N)C(=O)N[C@@H](CCCCN)C(=O)N1CCC[C@H]1C(=O)N[C@@H](CS)C(=O)N[C@@H](CCCNC(=N)N)C(=O)N[C@@H](CCCCN)C(=O)N1CCC[C@H]1C(N)=O — geometric mean MIC (Candida; twelve fungal strains): 8 µM
O=S(=O)(c1ccc(-c2ccc3ncnc(Nc4ccc(OCc5cccc(F)c5)c(Cl)c4)c3c2)cc1)N1CCOCC1 — inhibition (Trypanosoma cruzi; intracellular amastigote growth, β-galactosidase CPRG; 3T3, Tulahuen, β-galactosidase-expressing; 10 µM, 96 h): 0%
